Published values from different studies.
Every numbered part comes from another study and shows a few of its results, in no order. Positions count from the first letter of the parent shown.
UniProt Q7Z7E8, sequence (whole entry, looked up): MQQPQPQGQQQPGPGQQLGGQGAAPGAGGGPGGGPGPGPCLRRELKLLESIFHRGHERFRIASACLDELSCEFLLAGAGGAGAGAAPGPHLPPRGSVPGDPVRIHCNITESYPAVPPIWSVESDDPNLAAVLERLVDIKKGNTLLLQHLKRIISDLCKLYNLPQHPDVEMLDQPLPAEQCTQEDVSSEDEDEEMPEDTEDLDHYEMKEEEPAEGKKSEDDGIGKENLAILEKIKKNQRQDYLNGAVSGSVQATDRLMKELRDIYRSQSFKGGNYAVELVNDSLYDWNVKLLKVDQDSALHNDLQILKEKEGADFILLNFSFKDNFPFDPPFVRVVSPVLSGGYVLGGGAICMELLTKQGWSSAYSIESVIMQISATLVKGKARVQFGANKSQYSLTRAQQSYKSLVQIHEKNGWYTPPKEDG
UniProt P51668, sequence (whole entry, looked up): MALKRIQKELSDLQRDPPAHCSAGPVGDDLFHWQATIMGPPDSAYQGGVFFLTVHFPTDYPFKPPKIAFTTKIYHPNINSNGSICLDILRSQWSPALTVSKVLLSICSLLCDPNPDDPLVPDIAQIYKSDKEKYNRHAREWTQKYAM
UniProt Q712K3, sequence (whole entry, looked up): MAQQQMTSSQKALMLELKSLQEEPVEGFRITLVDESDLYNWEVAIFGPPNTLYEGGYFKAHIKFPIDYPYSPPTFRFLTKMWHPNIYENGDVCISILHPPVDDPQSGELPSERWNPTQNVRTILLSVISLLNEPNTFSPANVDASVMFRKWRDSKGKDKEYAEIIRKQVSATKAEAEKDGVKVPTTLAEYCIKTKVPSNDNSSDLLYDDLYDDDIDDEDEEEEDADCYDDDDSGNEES
UniProt Q9H832, sequence (whole entry, looked up): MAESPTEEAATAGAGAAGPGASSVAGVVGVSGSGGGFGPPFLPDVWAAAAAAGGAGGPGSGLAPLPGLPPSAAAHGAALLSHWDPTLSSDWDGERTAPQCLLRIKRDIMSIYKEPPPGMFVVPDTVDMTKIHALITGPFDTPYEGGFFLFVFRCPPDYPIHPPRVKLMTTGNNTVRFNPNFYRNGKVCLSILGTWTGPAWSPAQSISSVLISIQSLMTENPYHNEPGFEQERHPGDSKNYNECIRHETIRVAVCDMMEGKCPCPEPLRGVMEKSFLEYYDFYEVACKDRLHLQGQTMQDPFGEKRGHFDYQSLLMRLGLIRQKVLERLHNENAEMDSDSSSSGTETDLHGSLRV
UniProt Q969T4, sequence (whole entry, looked up): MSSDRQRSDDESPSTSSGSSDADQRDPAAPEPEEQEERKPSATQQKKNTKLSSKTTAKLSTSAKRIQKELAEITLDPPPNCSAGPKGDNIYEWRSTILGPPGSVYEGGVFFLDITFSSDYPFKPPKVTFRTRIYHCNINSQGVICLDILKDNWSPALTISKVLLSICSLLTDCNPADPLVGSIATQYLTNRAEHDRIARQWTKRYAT
UniProt P63146, sequence (whole entry, looked up): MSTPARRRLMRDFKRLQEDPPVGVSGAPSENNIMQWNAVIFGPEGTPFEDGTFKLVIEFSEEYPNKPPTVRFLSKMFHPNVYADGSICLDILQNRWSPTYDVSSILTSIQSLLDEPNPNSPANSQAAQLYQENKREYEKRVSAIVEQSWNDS
UniProt P68036, sequence (whole entry, looked up): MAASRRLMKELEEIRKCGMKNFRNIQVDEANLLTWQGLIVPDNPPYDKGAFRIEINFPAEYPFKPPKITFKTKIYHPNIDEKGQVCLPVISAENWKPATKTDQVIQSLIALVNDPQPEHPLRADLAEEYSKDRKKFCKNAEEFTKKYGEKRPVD
UniProt Q9Y385, sequence (whole entry, looked up): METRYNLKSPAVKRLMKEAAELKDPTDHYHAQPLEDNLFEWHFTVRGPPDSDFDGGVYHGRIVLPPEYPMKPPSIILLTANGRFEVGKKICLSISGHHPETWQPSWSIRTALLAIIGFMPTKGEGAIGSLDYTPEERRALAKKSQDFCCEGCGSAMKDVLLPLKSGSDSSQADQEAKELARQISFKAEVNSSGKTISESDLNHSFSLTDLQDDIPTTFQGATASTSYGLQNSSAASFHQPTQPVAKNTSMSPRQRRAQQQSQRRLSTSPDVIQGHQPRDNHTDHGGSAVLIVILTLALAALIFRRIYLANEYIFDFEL
UniProt O00762, sequence (whole entry, looked up): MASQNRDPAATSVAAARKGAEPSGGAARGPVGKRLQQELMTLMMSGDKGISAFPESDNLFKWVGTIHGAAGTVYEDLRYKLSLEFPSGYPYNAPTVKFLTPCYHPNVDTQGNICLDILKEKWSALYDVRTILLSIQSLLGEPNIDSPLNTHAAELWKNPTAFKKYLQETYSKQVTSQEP
UniProt Q8N2K1, sequence (whole entry, looked up): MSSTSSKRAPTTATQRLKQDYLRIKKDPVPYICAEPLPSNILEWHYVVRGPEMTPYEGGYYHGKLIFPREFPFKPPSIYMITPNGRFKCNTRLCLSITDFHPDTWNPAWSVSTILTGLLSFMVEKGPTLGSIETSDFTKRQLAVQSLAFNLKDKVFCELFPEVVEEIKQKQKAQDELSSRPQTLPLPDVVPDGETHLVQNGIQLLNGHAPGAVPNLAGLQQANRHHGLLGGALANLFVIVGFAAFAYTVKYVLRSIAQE
UniProt P62253, sequence (whole entry, looked up): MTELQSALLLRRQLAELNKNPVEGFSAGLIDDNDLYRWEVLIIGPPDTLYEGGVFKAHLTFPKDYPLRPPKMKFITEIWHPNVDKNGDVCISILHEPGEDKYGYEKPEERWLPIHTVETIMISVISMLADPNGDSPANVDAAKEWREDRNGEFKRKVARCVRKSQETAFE
UniProt Q9C0C9, sequence (whole entry, looked up): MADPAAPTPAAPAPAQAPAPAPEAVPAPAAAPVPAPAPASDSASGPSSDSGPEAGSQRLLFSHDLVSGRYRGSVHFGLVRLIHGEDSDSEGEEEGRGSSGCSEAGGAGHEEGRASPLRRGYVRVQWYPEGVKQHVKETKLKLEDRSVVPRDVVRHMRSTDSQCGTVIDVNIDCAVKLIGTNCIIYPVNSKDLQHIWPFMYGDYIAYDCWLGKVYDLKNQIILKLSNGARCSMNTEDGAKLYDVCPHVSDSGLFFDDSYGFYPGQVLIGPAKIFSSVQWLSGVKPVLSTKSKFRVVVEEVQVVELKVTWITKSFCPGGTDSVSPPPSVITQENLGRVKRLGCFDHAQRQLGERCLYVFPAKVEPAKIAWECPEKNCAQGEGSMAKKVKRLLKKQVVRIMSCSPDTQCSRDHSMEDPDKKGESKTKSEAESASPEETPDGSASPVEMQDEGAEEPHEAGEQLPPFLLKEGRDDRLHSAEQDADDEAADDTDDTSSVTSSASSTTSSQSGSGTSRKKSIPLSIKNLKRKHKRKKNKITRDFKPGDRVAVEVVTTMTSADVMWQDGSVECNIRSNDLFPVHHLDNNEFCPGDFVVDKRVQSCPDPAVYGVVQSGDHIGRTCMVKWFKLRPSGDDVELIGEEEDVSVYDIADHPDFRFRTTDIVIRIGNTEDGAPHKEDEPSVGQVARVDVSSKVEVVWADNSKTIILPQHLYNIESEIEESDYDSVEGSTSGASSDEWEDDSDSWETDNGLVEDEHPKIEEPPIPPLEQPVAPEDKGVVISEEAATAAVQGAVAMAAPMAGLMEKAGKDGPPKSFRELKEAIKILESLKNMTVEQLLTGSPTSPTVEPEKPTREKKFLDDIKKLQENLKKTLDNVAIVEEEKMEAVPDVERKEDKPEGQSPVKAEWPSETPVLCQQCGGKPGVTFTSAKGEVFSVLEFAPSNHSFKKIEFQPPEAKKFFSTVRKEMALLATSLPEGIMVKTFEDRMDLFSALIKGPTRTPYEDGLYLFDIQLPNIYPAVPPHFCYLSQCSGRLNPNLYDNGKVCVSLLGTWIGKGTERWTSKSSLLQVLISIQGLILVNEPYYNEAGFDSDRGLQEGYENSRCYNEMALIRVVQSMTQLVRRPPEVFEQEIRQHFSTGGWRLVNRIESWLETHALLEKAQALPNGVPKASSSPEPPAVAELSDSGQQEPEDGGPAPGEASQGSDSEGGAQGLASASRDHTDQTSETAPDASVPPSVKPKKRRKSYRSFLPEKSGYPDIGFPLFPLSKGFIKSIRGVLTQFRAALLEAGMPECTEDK
UniProt Q9NPD8, sequence (whole entry, looked up): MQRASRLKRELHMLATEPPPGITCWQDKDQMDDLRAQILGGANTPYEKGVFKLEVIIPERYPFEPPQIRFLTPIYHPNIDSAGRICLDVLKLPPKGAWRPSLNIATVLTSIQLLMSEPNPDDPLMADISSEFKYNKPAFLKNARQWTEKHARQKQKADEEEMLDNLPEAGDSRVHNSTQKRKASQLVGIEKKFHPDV
UniProt P61081, sequence (whole entry, looked up): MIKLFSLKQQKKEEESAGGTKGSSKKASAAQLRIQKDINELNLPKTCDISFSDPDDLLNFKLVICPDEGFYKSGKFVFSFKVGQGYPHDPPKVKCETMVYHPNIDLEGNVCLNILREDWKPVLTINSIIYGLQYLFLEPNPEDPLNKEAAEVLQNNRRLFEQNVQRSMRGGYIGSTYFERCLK

Block 1
Target: Phosphate system positive regulatory protein PHO4, full length, GST-tagged (PHO4, Saccharomyces cerevisiae, UniProt P07270, residues 1-312)
Method: competition protein-binding microarray
Molecule type: double-stranded DNA, one strand shown
Matrix: in vitro
Tested at: 2 µM
Setting: whole 60-bp probe, lowest competitor level
Added: Cbf1 competitor, 0.05 µM
Reading: higher = stronger binding
Quantity: fluorescence intensity
All sequences stand within: … GTCTTGATTCGCTTGACGCTGCTG
Target sequence (chain): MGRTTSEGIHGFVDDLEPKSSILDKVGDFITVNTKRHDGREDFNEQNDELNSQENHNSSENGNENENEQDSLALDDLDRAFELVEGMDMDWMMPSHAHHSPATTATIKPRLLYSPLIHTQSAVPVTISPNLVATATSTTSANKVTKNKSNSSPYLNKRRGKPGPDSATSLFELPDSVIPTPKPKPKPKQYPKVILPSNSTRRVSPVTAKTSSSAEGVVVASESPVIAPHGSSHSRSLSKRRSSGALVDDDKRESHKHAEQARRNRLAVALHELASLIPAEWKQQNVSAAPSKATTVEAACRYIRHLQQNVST
CGTCCTAGTGATTGGTATGTGGGTGCCATGAGGAAG: 7370 a.u.
AAATTACTAAGTTGTCGTGTGGGTGACGCCGTATGA: 4990 a.u.
CTAACGAAGGTTTGAATCGTGGGTGACAAGCCAAGT: 6780 a.u.
GCATATTGAAACCATCACGGGAACGAGAAGAATGGC: 5870 a.u.
TTTCAAAGCTGCCTCCACGTGGAACTTTTATTTCAT: 17500 a.u.
ATATATCTACTCCATCACGTTGCAAGACCCATCACA: 11900 a.u.
TTTCAAGCGTCCGAACGCGTGAGGATATATGCAAGC: 5970 a.u.
AAAGCGGTAATTTGGGGCGTGGGTGCAGATATCTAT: 9320 a.u.
ATAGCTGCACCAACGTCTCTAGTTAGATATAACGTA: 3540 a.u.
TTCATGGTTCTTTCACACGTGAGCCTTCCTCGGAGG: 14200 a.u.
AAAGCGGTAATTTGGGCGGTGGGTGCAGATATCTAT: 3950 a.u.
GTTGAGCAGCTCTCCTGCGTGCTTTCACAGAGACCC: 6930 a.u.
GGGCTACGGCGAGCGCACGCGCATACGTTGACCGCA: 9030 a.u.
ATAACCATAGGAAAGCACGTGATGGTGGAAGGACAG: 18000 a.u.
TTTCTGGTGTCTATGAAGGTGTCTCAACAATCGAAC: 3430 a.u.
CGGGGTTAAGTTTGGCCTGTGGGTGGCTTGCAGCAG: 4610 a.u.
TGCTGGATTAGGGAACACGTGGAAAGGGCTAGACCA: 14500 a.u.
CAACCGGCCTAGCATCACATGCTGATACCACTTGTA: 9220 a.u.

Block 2
Target: CCNE1, cyclin fold, Cln2 fusion (human)
Method: yeast growth competition, sequencing
Matrix: yeast
Setting: strong parent motif
Reference: not given
Reading: higher = stronger binding
Quantity: normalised enrichment score
Starting sequence: RBL2 docking peptide (human); STTRRRLFVENDS
F8R: -0.116
R5I: -0.00836
T2R: 6.16
R4Q: 1.2
T2P: 4.93
S13K: 5.49
R5A: -0.146
L7D: -0.121
S13Q: 5.21
D12K: 3.83
S1G: 5.38

Block 3
Target: RING finger protein unkempt homolog, zinc fingers 1-6, SBP tag (UNK, Homo sapiens, UniProt Q9C0B0, residues 30-357)
UniProt Q9C0B0, sequence (30-357, looked up): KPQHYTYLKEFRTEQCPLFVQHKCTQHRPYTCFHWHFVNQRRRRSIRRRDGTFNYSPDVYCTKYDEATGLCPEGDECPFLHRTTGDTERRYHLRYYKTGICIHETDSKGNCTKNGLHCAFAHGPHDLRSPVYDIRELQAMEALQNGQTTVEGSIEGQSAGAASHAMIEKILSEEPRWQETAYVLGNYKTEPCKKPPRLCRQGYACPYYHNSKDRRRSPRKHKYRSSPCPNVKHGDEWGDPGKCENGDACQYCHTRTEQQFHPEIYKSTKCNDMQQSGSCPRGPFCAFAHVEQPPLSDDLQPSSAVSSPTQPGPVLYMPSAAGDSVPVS
Method: RNA Bind-n-Seq
Molecule type: RNA
Matrix: in vitro
Tested at: 100 nM
Setting: RNA with constant flanks, vertebrate orthologous sites, ends assumed
Reference: input RNA pool
Reading: higher = stronger binding
Quantity: bound/input enrichment
All sequences stand within: GGGAGUUCUACAGUCCGACGAUC … CAACAGAGGAUUGAGCAUCA
GUUGUGACCCAUUUAACAUACACAAGAAGCUAGCCAAAAAGAACCUGCACGUCAUUGACUUAGAUGAUGCCACUUUUCUGAGCGCCAAGUUUGGAAGACAGCUUGUACCUGGUUGGAAGC: 0.556 ratio
GCACUCCCCAUGCGAAUUUCACAACACUGAAUGCAAAGUAGUAGUUUUCGUAGUCACAGUAAGGUAGCUUUAGGGCGGUAUCACCGUGGUGUUACUCGUGCAGGUUUUGAAAAUGUAUAA: 0.968 ratio
CGCAUCUGGUGAUAUUUGGGCUGGCCUUUCAGCUUAUGAUAAUAGCCCCAGAUCACCCCAUAGUCCUUCACCUAUUGCUACACCACCUAGUCAGAGCUCCUCUUGCUCUGAUGCCCCCAU: 0.398 ratio
GGGUGGCUGGUGGGGGAAUCCCAUGCCCUGGCCUUGCCUCCCCUCCUUGCCACCCGCUCCUAGUUAUUUUUUUUUUUAACCACCAUGUGAUUAAGGUCGGCGCUGCCUCCCCCCGACCCA: 4.8 ratio
UUCAGUCUCCUGGUCCAGGAAACUUAUUUUUUAACAUCUUGAAAUUUAACUCUGUGCUUGAAGAAGACUGUAACCUUUUUGUCUGUUUUGUUUUUGUUUUUAAACAUACAAUCUCCACCU: 0.267 ratio
AAAUAUACUUCAUGCCAUGGACUCCAUAUCGCACUGAUACUUUGAUAGAAUAUGCUUCUUUAGAGGACUUCCAAAAUGGACGCCAACAGACAACUUACAAACUUCCAAAUAGAGUGGAUG: 1.81 ratio
AUUCAAACCCGUGGUGCCAUGGCCUCAUGUGGAAGGAGUAGAAGUGGACUUAGAGUCUAUUAGAAGAAAAAACAAGGCCAAAAAUGAUCACGAGCACCAUGCUGGAGGAGAUUCCCAAAA: 0.407 ratio
GCAAUGAAAAAACAGCCCUCCUCCCAGCCCCCAUUUCACUAGGAGAUACAAACAUUAACGUAGAAGAGCAAUUUAACUCAAUAAAUUUAUCUUUUCAGGAUGAUCCAGACUCCAGUACCA: 0.988 ratio
UAUUUUCUUACUUUAGGUAUCAUUGCCCAAUGCCCAAGAUCUUUUAUGUUCAGCUGACUGUAGGAAAUAAUGAAUUUUUUGGGGAAGGAAAGACUCGACAAGCUGCUAGACACAAUGCCG: 0.992 ratio
AAGUAUCCCAGUUUACCGUGUUGAGUUGGCAUUGUACAGAAAUUAACAGCCAUAUUGGUCUAGAAAUGUUAAACUUAAUUUUUUUCCAUUUGUACAGGGGUAACGCACUGUAUUAAAUAU: 0.523 ratio
UCCCCUAUUACCUGUAAAAUAGAACUUUUUUAAAUUGUGUUGCCACCACUCCUAAAAAUUUAGCAAUAUUUAAAUAAAACACUAAUGAAGUAAGAAAUUUUGCUUCUUAUUUUACAACCA: 2.84 ratio

Block 4
Sequence: B1 (TRIM22 RING domain)
Method: yeast two-hybrid
Matrix: yeast
Setting: mostly zero background
Reference: not given
Reading: higher = stronger interaction
Quantity: lacZ reporter activity
B1: TRIM22 RING domain (UniProt Q8IYM9); chain KEVKMSPQEGQKRDVCEHHGKKLQIFCKEDGKVICWVCELSQEHQGHQTFRINEVVKECQEK
UBE2R2 UBC core domain (UniProt Q712K3): 0
UBE2M UBC core domain (UniProt P61081): 0
UBE2J1 UBC core domain (UniProt Q9Y385): 0
BIRC6 UBC core domain (UniProt Q9NR09): 0
UBE2T UBC core domain (UniProt Q9NPD8): 0
UBE2B UBC core domain (UniProt P63146): 0
UBE2O UBC core domain (UniProt Q9C0C9): 0
UBE2C UBC core domain (UniProt O00762): 0
UBE2I UBC core domain (UniProt P63279): 0
UBE2D1 UBC core domain (UniProt P51668): 0
UBE2E3 UBC core domain (UniProt Q969T4): 0
UBE2L3 UBC core domain (UniProt P68036): 0
UBE2J2 UBC core domain (UniProt Q8N2K1): 0
UBE2Z UBC core domain (UniProt Q9H832): 0
UBE2Q1 UBC core domain (UniProt Q7Z7E8): 0
UBE2G1 UBC core domain (UniProt P62253): 0

Repeated from above (block 1):
GCATATTGAAACCATCACGGGAACGAGAAGAATGGC: 5870 a.u.
TTTCAAAGCTGCCTCCACGTGGAACTTTTATTTCAT: 17500 a.u.
ATATATCTACTCCATCACGTTGCAAGACCCATCACA: 11900 a.u.
TTTCAAGCGTCCGAACGCGTGAGGATATATGCAAGC: 5970 a.u.
AAAGCGGTAATTTGGGGCGTGGGTGCAGATATCTAT: 9320 a.u.
ATAGCTGCACCAACGTCTCTAGTTAGATATAACGTA: 3540 a.u.
